Measurements of several laboratories.
Numbered parts are unrelated; each lists some results of a single study.

Block 1 — method: protein binding microarray; molecule type: double-stranded DNA, one strand shown; medium: in vitro; tested at: not given; relative to: not given; direction: higher = stronger binding
Target: Histone acetyltransferase KAT6A, winged helix 1, GST fusion (KAT6A, Homo sapiens, UniProt Q92794, residues 1-85)
Notes: 8-mer, flanks averaged, mean of 2 arrays, mostly near background
Residues (chain): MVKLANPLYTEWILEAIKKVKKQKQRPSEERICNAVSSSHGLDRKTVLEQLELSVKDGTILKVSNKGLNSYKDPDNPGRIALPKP
Oligonucleotide	E-score
GGCAGAAC	0.0056
AACATTAT	-0.173
AATCCACC	-0.21
ACCTGCTC	-0.0883
AAAAGGAG	-0.101
ATAGGCTG	-0.215
CAAATATG	-0.0198
ATCGAGTA	-0.0279
CCCGCGAC	0.405
ATTGTGAG	-0.197
CAGATAGA	-0.253
CATGAACG	-0.0124
AGTACAGG	-0.115
TGAGAAAA	-0.186
AGGTCGGG	-0.0465
ATGTGGCC	-0.163
AACTCCGT	0.223
TAGCCCAA	-0.0865
CTGTAAGC	-0.0315
TCGGAGCA	-0.0384
ACCGGCTG	0.13

Block 2 — method: DNA-protein interaction ELISA; molecule type: double-stranded DNA, one strand shown; medium: in vitro, bacterial lysate; tested at: not given; notes: whole dsDNA probe, crude lysate protein; relative to: highest signal in screen; direction: higher = stronger binding
Target: Probable WRKY transcription factor 50, DNA-binding domain (WRKY50, Arabidopsis thaliana, UniProt Q8VWQ5, residues 99-173)
Target sequence (chain): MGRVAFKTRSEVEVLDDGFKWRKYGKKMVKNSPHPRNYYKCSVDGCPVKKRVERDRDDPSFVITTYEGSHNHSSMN
Oligonucleotide	relative absorbance
AAAAAAAACGTCTGGCGGGGTTGAGAAAAA	39 % of maximum
AAAAAAATCTCACTCCTGGTCCCCATAAAA	10.7 % of maximum
AAAAAATGGTCGATCCGCATGCAGTTAAAA	20.3 % of maximum
AAAAAACGGTCGCGATCGTTAATGATAAAA	19.8 % of maximum
AAAAAAGGTCTGGACGATCACCGGGAAAAA	39.6 % of maximum
AAAAAATTCTAGCTTTTAACTTTAGCAAAA	14.1 % of maximum
AAAAAACATGTCGCACCTGTACTAACAAAA	39.4 % of maximum
AAAAAATGTTGTTGCTGTTGGTCCTAAAAA	28.1 % of maximum
AAAAAAGCCTTTACCCTTGTTCCTCTAAAA	14.8 % of maximum
AAAAAATTGTGCCTCTGCCCTCGCCTAAAA	22.5 % of maximum
AAAAAAGTCGTTACACGTATGCGTGCAAAA	65.8 % of maximum
AAAAAATGATGTTGGCGCATTTAAACAAAA	17.8 % of maximum
AAAAAATCTTACCCCTCCGCTTCTATAAAA	49 % of maximum
AAAAAATTCAAAATGATCACTACGGGAAAA	9.63 % of maximum
AAAAAAGCTTTCAACATCTGCGTCCAAAAA	20.2 % of maximum
AAAAAAGTTGCCGACGATTGCGGGTTAAAA	34.2 % of maximum
AAAAAAGCCATCATGGTTAGTGTACAAAAA	35.7 % of maximum
AAAAAACCACCCAGTCTGTTTCTACTAAAA	17 % of maximum

Block 3 — method: universal PBM; molecule type: double-stranded DNA, one strand shown; medium: in vitro; tested at: not given; direction: higher = stronger binding
Target: Sal-like protein 4, full length isoform B (SALL4, Homo sapiens, UniProt Q9UJQ4-2, residues 1-616)
Notes: 8-mer, flanks averaged, mean of replicates
Target sequence (chain): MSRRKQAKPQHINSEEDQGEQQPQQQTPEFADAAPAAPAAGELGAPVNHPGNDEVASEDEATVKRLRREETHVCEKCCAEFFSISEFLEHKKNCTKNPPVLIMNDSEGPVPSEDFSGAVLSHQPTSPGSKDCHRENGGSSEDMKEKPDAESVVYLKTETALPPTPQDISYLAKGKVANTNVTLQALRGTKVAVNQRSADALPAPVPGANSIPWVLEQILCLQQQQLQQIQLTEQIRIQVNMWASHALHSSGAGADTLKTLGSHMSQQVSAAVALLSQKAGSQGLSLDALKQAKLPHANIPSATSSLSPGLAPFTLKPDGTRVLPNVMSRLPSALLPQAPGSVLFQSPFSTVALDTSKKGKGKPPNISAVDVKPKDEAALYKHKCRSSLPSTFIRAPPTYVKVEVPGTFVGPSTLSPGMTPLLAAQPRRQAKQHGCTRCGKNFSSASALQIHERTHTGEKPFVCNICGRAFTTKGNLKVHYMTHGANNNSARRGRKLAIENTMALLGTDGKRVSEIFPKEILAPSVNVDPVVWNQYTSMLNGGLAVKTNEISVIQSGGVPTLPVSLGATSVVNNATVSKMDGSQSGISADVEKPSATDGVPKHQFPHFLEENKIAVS
Oligonucleotide	E-score
CGATAGTA	0.0207
CAAAGTTG	0.0307
ACACCCCA	-0.1
GCGCGAGC	-0.325
GGAAGGCA	-0.177
ATATAAAG	0.302
TGCGGACA	-0.112
CATAGCAC	0.127
ACTCTGAT	0.0162
TACACACA	0.207
ATTCTTTG	0.187
ATATGCTG	0.146
AAGCCAAC	0.0856
TTAAGGAA	0.135
GTGGGTGA	-0.0167
ATGGTCCG	-0.156
CCGCTCCA	-0.199
GATCACCC	-0.185
ATACTTCC	0.0977
ATGCTATC	0.102
AACTTGAC	0.0788
GCGATAAA	0.0944
AAACCGTT	-0.0961
ATTATGAG	0.341
AATGGATA	0.193

Block 4 — method: RNA Bind-n-Seq; molecule type: RNA; medium: in vitro; tested at: 365 nM; relative to: no-protein control; direction: higher = stronger binding
Target: RNA binding protein fox-1 homolog 2, RRM domain, GST-SBP tag (RBFOX2, Homo sapiens, UniProt O43251-10, residues 100-194)
Notes: natural RNA segment, single round, ends assumed
Target sequence (chain): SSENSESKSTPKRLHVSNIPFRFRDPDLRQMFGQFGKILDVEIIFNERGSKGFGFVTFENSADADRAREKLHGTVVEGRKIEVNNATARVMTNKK
Oligonucleotide	RBNS enrichment (R)
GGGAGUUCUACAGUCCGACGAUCGUCAGUAGCCCUAACCUCACUAACUGACAUACUCCCAAACCAGGCUUCUUGGGCCAGGUCUGUCCCAUGAGUCAAAUUUAGGAAAGCAAGGAUAGGUUUUGUCAUAGAUAUGGAAUUCUCGGGUGCCAA	0.385
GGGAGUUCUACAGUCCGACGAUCUCAGUGCUUAUUUUUUAAACUGCAUUUUAAAAAUUGGAUAGUAUAAUAACAAUAAGGAGUAAGCCACCUUUUAUAGGCACCCUGUAGUUUUAUAGUUCUUAAUCUAAACAUGGAAUUCUCGGGUGCCAA	0.433
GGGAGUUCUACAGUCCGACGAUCAGAGGGACAACUGCAGCAGUGGGGAGGAGGCACAGCUAGCUGCACAGUUCUCUCUUCUCCUUGUCCUAGUCAGAUGAAGGAGGCUGCACUACAAACCCAAAUUCUGCAAAUGGAAUUCUCGGGUGCCAA	0.758
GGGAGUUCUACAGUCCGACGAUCCUGGAGCCACCGCCUCGCGGGUGCAGCAGCACAGCAGGCACGGUUCGGGGAGGGAUUCGGCAUGGCCGCGGGGUACCUUCCCAGGCCAGGGCCCUGGAGGCAACUGGCACUGGAAUUCUCGGGUGCCAA	0.221
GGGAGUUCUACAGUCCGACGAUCCUCUCCUGUCUAUACAUACACACCUACUGAAUAGAAGCCUAGCUGACAGUCUCUGAAUAGUGGUUUUUCUAAUAAGAUGAGAUUUUUUUCUCUUGGGAAGUCACCUGUGAUGGAAUUCUCGGGUGCCAA	0.595
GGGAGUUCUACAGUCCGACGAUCUGAUAUAUAUCACACCCAGGUAUCACUGUGCUGUCCUUUGCUGUCAGAUUUAGAAAUGUUUUUAAGAGCUAUGUGAAAACAGACAAUAUUAGUUUAGGUCGGGAACUGAGUGGAAUUCUCGGGUGCCAA	0.76
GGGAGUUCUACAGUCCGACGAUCAACACAUAUAUUUUAAAGUAUAACAUAUUUAUUAUAAUUUAUUUGCACCUUGGGAAGACUUGCUUUGCAUUCUGCCUCAAGAGCUUCUCAUUGAUGUCCAUCUGGAGGCCUGGAAUUCUCGGGUGCCAA	0.417
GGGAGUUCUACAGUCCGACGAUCUCUGGGCCCUUCCACAAGGGUCCUCUGAACCAAGCCCCACUCCCUUGCUAGGGGUGAAAGCAUUACAGAGAGAUGGAGCCAUCUAUCCAAGAAGCCUUCACUCACCUUCAUGGAAUUCUCGGGUGCCAA	0.194
